Published values of several laboratories.
A part holds a random share of what one study measured. Changes are numbered by the printed parent chain.

Study 1
Target: Fragile X messenger ribonucleoprotein 1, C-terminal low-complexity region (Fmr1, Mus musculus, UniProt P35922)
Method: RNA Bind-n-Seq
Molecule type: RNA
Medium: in vitro
Tested at: 200 nM
Notes: whole 134-nt RNA, ends assumed
Added: 150 mM KCl
Baseline: input library
Reading: higher = stronger binding
Shared flanks, not repeated: GGGAGUUCUACAGUCCGACGAUC … UGGAAUUCUCGGGUGUCAAGG
Strand | log2 enrichment
AAGUCCUGUGCUACACAUCGUAUGUACCGAAUCGGGGUGGGGUGGGGUUUUUGGGGAAAGUAUUAUGUUACGCCGUUCGGAUCUGCACUU | 1.3
AAGUCCUGUGCUACACAUCGUAUGUACCGAAUCGGUUUUUUUGGAAAAAAAGGUGGAAAGUAUUAUGUUACGCCGUUCGGAUCUGCACUU | -1.01
GUCCUGUGCUACACAUCGUAUGUACCGAAUCGGGAAAAAAAGGGAAAAAAAGGGAGGGAAAGUAUUAUGUUACGCCGUUCGGAUCUGCAC | 0.127
AGUCCUGUGCUACACAUCGUAUGUACCGAAUCGGGAGGGUUUUUGGGAAAAAAAGGGAAAGUAUUAUGUUACGCCGUUCGGAUCUGCACU | 0.164
UCAAGUCCUGUGCUACACAUCGUAUGUACCGAAUCGGUUUUUGGUUUUUGGAGGAAAGUAUUAUGUUACGCCGUUCGGAUCUGCACUUCC | -0.474
UGGGAGGUGGAUUUUGUUUAUUUUUUUAGCUCAUUUCCAGGGGUGGGAAAUUUUUUUUAAUAUGUGUCAUGAAUAAAGUUGUUUUUGAAA | 0.319
CACAGACAACACGCAAAAACACAGACACAGAGGGAAGGGGUUGGGAUGGGGACAGGGUGCACAGCAGGGCGGGGUAGGACCCCAGCCCCU | 1.2
UGGACAUGGAUUUUCAAGCCUACUUAGCUUCCUCUAGUGAAGAUGAAGAGGAGAUAGAAGAGGAGCUACAAGGUAUUGUUAAUCUUUCAG | -0.872
GCAGGAAGUAAAAGCAAAUGGAAAUGCUUCGGAUAGUGGCAGGGGUGGGGGUUGCUAAGGAAAGGGUGGGAUGGGAGUGGGUAAAGAGUU | 0.415
UGGGAGGUGGAUUUUGUUUAUUUUUUUAGCUCAUUUCCAGGGGUGGGAAUUUUUUUUCAAUAUGUGUCAUGAAUAAAGUUGUUUUUGAAA | 0.261
UCUCUUGCUCAAGUUUUCUCUCACAGAUGACAGCCACCUACCACAUAACAUGACCAGCAAACGGACUGUUCCUAGUCCAGAGGGCCUUGC | 0.618
UCCUGUGCUACACAUCGUAUGUACCGAAUCAAACCCAAACCCCCCCAAACCCCCCCAAAAAAGUAUUAUGUUACGCCGUUCGGAUCUGCA | 0.11
UUCCUCAAGUCCUGUGCUACACAUCGUAUGUACCGAAUCGGUGGAGGUGGAAAGUAUUAUGUUACGCCGUUCGGAUCUGCACUUCCAGCA | -0.573
CCUCAAGUCCUGUGCUACACAUCGUAUGUACCGAAUCGGAGGAGGUUUUUGGAAAGUAUUAUGUUACGCCGUUCGGAUCUGCACUUCCAG | 0.121

Study 2
Target: UBE2U UBC core domain (UniProt Q5VVX9)
Method: yeast two-hybrid
Medium: yeast
Notes: mostly zero background
Baseline: not given
Reading: higher = stronger interaction
B1: RNF25 RING domain (UniProt Q96BH1); chain LTDNNIPHGQCVICLYGFQEKEAFTKTPCYHYFHCHCLARYIQHMEQELKAQGQEQEQERQHATTKQKAVGVQCPVCREPLVYDLASL
B2: MID1 RING domain (UniProt O15344); chain METLESELTCPICLELFEDPLLLPCAHSLCFNCAHRILVSHCATNESVESITAFQCPTCRHVITLSQRGL
B3: CUL9 RING domain (UniProt Q8IWT3); chain AQAVPVRPDHCPVCVSPLGCDDDLPSLCCMHYCCKSCWNEYLTTRIEQNLVLNCTCPIADCPAQPTGAFIR
B4: PHF21A RING domain (UniProt Q96BD5); chain SPTSTDGDIHEDFCSVCRKSGQLLMCDTCSRVYHLDCLDPPLKTIPKGMWICPRCQDQMLKKEEAIPW
B5: TRIM8 RING domain (UniProt Q9BZR9); chain WKNCFEEELICPICLHVFVEPVQLPCKHNFCRGCIGEAWAKDSGLVRCPECNQAYNQKPGLE
B6: RC3H2 RING domain (UniProt Q9HBD1); chain QAAQWTEFLSCPICYNEFDENVHKPISLGCSHTVCKTCLNKLHRKACPFDQTAINTDIDVL
Target sequence (chain): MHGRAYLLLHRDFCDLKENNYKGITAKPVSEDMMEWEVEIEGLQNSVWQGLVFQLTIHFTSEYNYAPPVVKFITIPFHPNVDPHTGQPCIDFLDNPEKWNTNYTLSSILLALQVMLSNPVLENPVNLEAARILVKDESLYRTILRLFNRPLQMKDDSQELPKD
Sequence | lacZ reporter activity
B1 (RNF25 RING domain) | 7590
QHHELTSLFECPVCFDYVLPPILQCQAGHLVCNQCRQKLSCCPTCRGALTPSIRNL (SIAH2 RING domain (UniProt O43255)) | 9030
DDENSDNSNECVVCLSDLRDTLILPCRHLCLCTSCADTLRYQANNCPICRLPFRALLQIR (MGRN1 RING domain (UniProt O60291)) | 0
RLTMMWEEVTCPICLDPFVEPVSIECGHSFCQECISQVGKGGGSVCPVCRQRFLLKNLRP (TRIM21 RING domain (UniProt P19474)) | 0
KTLSRFGIQPCSICLGDAKDPVCLPCDHVHCLRCLRAWFASEQMICPYCLTALPDEFSPA (RNF213 RING domain (UniProt Q63HN8)) | 0
B2 (MID1 RING domain) | 4880
B3 (CUL9 RING domain) | 0
B4 (PHF21A RING domain) | 0
QLQDIKEQTMCPVCLDRLKNMIFLCGHGTCQLCGDRMSECPICRKAIERRILLY (MIB1 RING domain (UniProt Q86YT6)) | 8790
B5 (TRIM8 RING domain) | 8600
B6 (RC3H2 RING domain) | 0
QLRRLQEERTCKVCMDKEVSVVFIPCGHLVVCQECAPSLRKCPICRGIIKGTVRTF (BIRC2 RING domain (UniProt Q13490)) | 0
QLRRLQEERTCKVCMDKEVSIVFIPCGHLVVCKDCAPSLRKCPICRSTIKGTVRTF (BIRC3 RING domain (UniProt Q13489)) | 11800

Study 3
Target: CCNE2, cyclin fold, Cln2 fusion (human)
Method: yeast growth competition, sequencing
Medium: yeast
Notes: strong parent motif
Baseline: not given
Reading: higher = stronger binding
Starting sequence: WEE1 docking peptide (human); HKTFRKLRLFDTP
Change | normalised enrichment score
L9K | 0.646
L7R | 1.04
P13I | 0.778
K2C | 0.511
R8F | 0.493
T3G | 1.54
D11K | 0.848
P13H | 0.212
P13A | 0.158
L7D | -0.379
F4C | 0.866
P13W | 0.624
T3K | 0.317
L7Y | 1.14
R5P | 0.0418
R8K | 1.44
L9E | 0.728
P13M | 2.1
D11F | 1.55
R8L | 0.352
R5T | 1.84
K2Q | 1.07
T12V | 1.11
R5L | 0.647
L7T | 1.01

Study 4
Target: ABI1, truncated, D143A, DHFR fusion (Arabidopsis thaliana)
Method: DHFR PCA, deep sequencing
Medium: yeast
Notes: methotrexate growth selection, single substitutions
Added: (+)-ABA 0.032 µM
Baseline: wild-type fitted maximum
Reading: higher = stronger binding
Starting sequence: PYL1, truncated, DHFR fusion (Arabidopsis thaliana); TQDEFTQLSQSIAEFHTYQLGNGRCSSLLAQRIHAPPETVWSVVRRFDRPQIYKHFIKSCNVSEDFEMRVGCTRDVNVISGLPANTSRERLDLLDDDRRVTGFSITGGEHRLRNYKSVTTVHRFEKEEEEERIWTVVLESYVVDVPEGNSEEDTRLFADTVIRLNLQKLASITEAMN; partner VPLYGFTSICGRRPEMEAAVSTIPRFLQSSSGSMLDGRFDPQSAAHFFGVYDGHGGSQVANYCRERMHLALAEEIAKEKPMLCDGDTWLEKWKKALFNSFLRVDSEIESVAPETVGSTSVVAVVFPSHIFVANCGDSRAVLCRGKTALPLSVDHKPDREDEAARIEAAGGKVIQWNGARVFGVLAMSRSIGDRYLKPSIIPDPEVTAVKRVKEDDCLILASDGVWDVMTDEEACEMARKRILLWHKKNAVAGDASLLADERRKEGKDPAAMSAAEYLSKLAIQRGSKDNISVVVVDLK
Change | relative binding score
I172Q | -3.76%
D75I | 29.2%
N22G | 21.5%
W41C | 0.401%
R99P | 29%
D97L | 4.54%
R111A | 2.08%
L94Y | 5.41%
M68K | -8.71%
N22Q | 42%
Q167L | 16.5%
R88T | 42.4%
T101V | 35.1%
S171F | -4.17%
G108L | -3.73%
I57S | 1.82%
F157K | 3.32%
N77Q | 59.8%
M68W | -0.403%
N77P | -2.59%
V118S | -0.959%
S117R | -3.81%
N165D | 12.5%
E131S | 48.9%

Study 5
Target: RING finger protein unkempt homolog, zinc fingers 1-6, SBP tag (UNK, Homo sapiens, UniProt Q9C0B0, residues 30-357)
Chain of UniProt Q9C0B0 (30-357, looked up): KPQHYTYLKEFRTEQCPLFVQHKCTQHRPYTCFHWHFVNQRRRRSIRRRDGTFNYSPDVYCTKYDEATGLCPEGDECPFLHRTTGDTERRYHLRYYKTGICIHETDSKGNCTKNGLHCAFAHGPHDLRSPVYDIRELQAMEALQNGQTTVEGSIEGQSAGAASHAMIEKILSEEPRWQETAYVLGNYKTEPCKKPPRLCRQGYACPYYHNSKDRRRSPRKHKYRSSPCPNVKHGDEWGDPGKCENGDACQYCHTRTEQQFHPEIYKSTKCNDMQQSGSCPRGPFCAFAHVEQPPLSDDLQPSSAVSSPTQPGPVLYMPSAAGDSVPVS
Method: RNA Bind-n-Seq
Molecule type: RNA
Medium: in vitro
Tested at: 100 nM
Notes: RNA with constant flanks, vertebrate orthologous sites, ends assumed
Baseline: input RNA pool
Reading: higher = stronger binding
Shared flanks, not repeated: GGGAGUUCUACAGUCCGACGAUC … CAACAGAGGAUUGAGCAUCA
Strand | bound/input enrichment
CCUACAAUAAUGAAAACCUACAGGAAUUUUUUUAUUUUUCAUUAUCCCCUUAGGCAUAUUUAGGCUUUUCCCCUAGGCAGAUCAUUCUGAGUGUGCGAGUGUGUGUGCACAUGUUACAAA | 0.941 ratio
AUUAAAUGUAUAUCAAAUGCUGGAUGUCACAUUACACCAUCAUUUAGAAUAGAUGUUAAUUUGUUAUAGUUAAGCUACAAAUAGGUUUCCUUAAACCGGAGAUGCACUCCUCUCGUCUCA | 0.971 ratio
AAAUUUAUUUCAUGCCCUGGACUCCCUACCGCACUGAUACUUUAAUAGAGUAUGCUUCUUUAGAAGAUUUCCAAAACAGUCGCCAAACAACAACAUAUAAACUUCCAAAUCGAGUAGAUG | 0.857 ratio
AGUUUGUAUGUACAUUAUUCACAUUCCUCUCUGUUGUGUUUGGGGGAAAAAAAAGACAUUUUAGCCUUUUUUAAGGUUAUUGAUUUAAUUUCAUGUUAUUUGGUUGCAUGAAGUUGCCCU | 0.417 ratio
AGAACCUAUUUGCUGUCCCGCUACUGCCACGGGUGUGUCGGAGGCGCUGCAAGGGGUCCAUGGUUUUUUUUUUUUUGCUGCCUCAGUCCCCAGAGCCUUCAAGCGGCGGUGGCAGUAGAU | 0.355 ratio
GUGAGCAGUGGGCACCGGACUGGAGCAAGGAGCAAGUCAAGCAAACCUCCAGUGAAACUGCUGCCAUCUGCACUAUCGUUAACCUGCUGUCACCUUUUUCAUAUAUAUAUAAAAUACUUA | 0.131 ratio
UUCAGGCACAACUGACUGGUUCACAGCACUCCUUACAUAGUUAUCUAUCAAAUUCAAGUGUAGCUAAUUUUCAGGAAACAACCAGGCAGUCAUCUUUAUCCUGUAGCCCAAUUGGAGAUU | 1.67 ratio
GCCAUUUUUUUUCCACAUUUUCUGUAAAUAAUGGAUAAUCAUUUUUAAAAAUUUUAUUUUUAGUGCUGUUUUAGCAAUGUGGAUAGAUCAUAAAUGUACUUGCUGAAUUCAAUCAUUUUU | 0.401 ratio
UGCCUGUAGGAUGAAGCUCUUACAUCAGGUGUCACGAGUCUGGAGGAAAGAUGGAUUGAGUAGUUGCUCAUAUAAAUUACUCUCAGUGAUUUACAACCCUUUAUAUAUCAACAUCACAGU | 0.386 ratio
AGCAACCCAUGGAUUGAGGACUGGCUUUCCAAAUAUACCAAAUAGAUACGGAACUAACAGUAGAAUUGGACAACCAAGACCAUGAUGUGUUGCAAUUUAACUUAUUUUUAUGAGGAAUAU | 0.817 ratio
AGCUUCUGGCGACAUUUGGCCUGGCCUUUCAGCAUAUGAUAACAGUCCAAGGUCACCCCAUAGUCCUUCUAUUGCCACCCCACCUAGUCAGAGUUCAUCUUGCUCUGAUGCCCCUUUGCU | 0.727 ratio
